{"data": "Results of several laboratories", "B1": "peripherin, human; sequence looked up; chain MSHHPSGLRAGFSSTSYRRTFGPPPSLSPGAFSYSSSSRFSSSRLLGSASPSSSVRLGSFRSPRAGAGALLRLPSERLDFSMAEALNQEFLATRSNEKQELQELNDRFANFIEKVRFLEQQNAALRGELSQARGQEPARADQLCQQELRELRRELELLGRERDRVQVERDGLAEDLAALKQRLEEETRKREDAEHNLVLFRKDVDDATLSRLELERKIESLMDEIEFLKKLHEEELRDLQVSVESQQVQQVEVEATVKPELTAALRDIRAQYESIAAKNLQEAEEWYKSKYADLSDAANRNHEALRQAKQEMNESRRQIQSLTCEVDGLRGTNEALLRQLRELEEQFALEAGGYQAGAARLEEELRQLKEEMARHLREYQELLNVKMALDIEIATYRKLLEGEESRISVPVHSFASLNIKTTVPEVEPPQDSHSRKTVLIKTIETRNGEVVTESQKEQRSELDKSSAHSY", "B2": "gasdermin-A (human); sequence looked up; chain MTMFENVTRALARQLNPRGDLTPLDSLIDFKRFHPFCLVLRKRKSTLFWGARYVRTDYTLLDVLEPGSSPSDPTDTGNFGFKNMLDTRVEGDVDVPKTVKVKGTAGLSQNSTLEVQTLSVAPKALETVQERKLAADHPFLKEMQDQGENLYVVMEVVETVQEVTLERAGKAEACFSLPFFAPLGLQGSINHKEAVTIPKGCVLAFRVRQLMVKGKDEWDIPHICNDNMQTFPPGEKSGEEKVILIQASDVGDVHEGFRTLKEEVQRETQQVEKLSRVGQSSLLSSLSKLLGKKKELQDLELALEGALDKGHEVTLEALPKDVLLSKEAVGAILYFVGALTELSEAQQKLLVKSMEKKILPVQLKLVESTMEQNFLLDKEGVFPLQPELLSSLGDEELTLTEALVGLSGLEVQRSGPQYMWDPDTLPRLCALYAGLSLLQQLTKAS", "B3": "serpin B12 (human); sequence looked up; chain MDSLVTANTKFCFDLFQEIGKDDRHKNIFFSPLSLSAALGMVRLGARSDSAHQIDEVLHFNEFSQNESKEPDPCLKSNKQKAGSLNNESGLVSCYFGQLLSKLDRIKTDYTLSIANRLYGEQEFPICQEYLDGVIQFYHTTIESVDFQKNPEKSRQEINFWVECQSQGKIKELFSKDAINAETVLVLVNAVYFKAKWETYFDHENTVDAPFCLNANENKSVKMMTQKGLYRIGFIEEVKAQILEMRYTKGKLSMFVLLPSHSKDNLKGLEELERKITYEKMVAWSSSENMSEESVVLSFPRFTLEDSYDLNSILQDMGITDIFDETRADLTGISPSPNLYLSKIIHKTFVEVDENGTQAAAATGAVVSERSLRSWVEFNANHPFLFFIRHNKTQTILFYGRVCSP", "B4": "Protein S100-A8 (human); sequence looked up; chain MLTELEKALNSIIDVYHKYSLIKGNFHAVYRDDLKKLLETECPQYIRKKGADVWFKELDINTDGAVNFQEFLILVIKMGVAAHKKSHEESHKE", "B5": "sequence looked up; chain AARVLIIGSGGREHTLAWKLAQSHHVKQVLVAPGNAGTACSEKISNTAISISDHTALAQFCKEKKIEFVVVGPEAPLAAGIVGNLRSAGVQCFGPTAEAAQLESSKRFAKEFMDRHGIPTAQWKAFTKPEEACSFILSADFPALVVKASGLAAGKGVIVAKSKEEACKAVQEIMQEKAFGAAGETIVIEELLDGEEVSCLCFTDGKTVAPMPPAQDHKRLLEGDGGPNTGGMGAYCPAPQVSNDLLLKIKDTVLQRTVDGMQQEGTPYTGILYAGIMLTKNGPKVLEFNCRFGDPECQVILPLLKSDLYEVIQSTLDGLLCTSLPVWLENHTALTVVMASKGYPGDYTKGVEITGFPEAQALGLEVFHAGTALKNGKVVTHGGRVLAVTAIRENLISALEEAKKGLAAIKFEGAIYRKDVGFRAIAFLQQPRSLTYKESGVDIAAGNMLVKKIQPLAKATSRSGCKVDLGGFAGLFDLKAAGFKDPLLASGTDGVGTKLKIAQLCNKHDTIGQDLVAMCVNDILAQGAEPLFFLDYFSCGKLDLSVTEAVVAGIAKACGKAGCALLGGETAEMPDMYPPGEYDLAGFAVGAMERDQKLPHLERITEGDVVVGIASSGLHSNGFSLVRKIVAKSSLQYSSPAPDGCGDQTLGDLLLTPTRIYSHSLLPVLRSGHVKAFAHITGGGLLENIPRVLPEKLGVDLDAQTWRIPRVFSWLQQEGHLSEEEMARTFNCGVGAVLVVSKEQTEQILRDIQQHKEEAWVIGSVVARAEGSPRVKVKNLIESMQINGSVLKNGSLTNHFSFEKKKARVAVLISGTGSNLQALIDSTREPNSSAQIDIVISNKAAVAGLDKAERAGIPTRVINHKLYKNRVEFDSAIDLVLEEFSIDIVCLAGFMRILSGPFVQKWNGKMLNIHPSLLPSFKGSNAHEQALETGVTVTGCTVHFVAEDVDAGQIILQEAVPVKRGDTVATLSERVKLAEHKIFPAALQLVASGTVQLGENGKICWVKEE", "note": "Lines come from different studies, so protocols differ. Values joined by “and” are separate records of one study, mostly repeats; a detail may differ. ± gives the spread as reported.", "chain of UniProt P26368 (whole entry, looked up)": "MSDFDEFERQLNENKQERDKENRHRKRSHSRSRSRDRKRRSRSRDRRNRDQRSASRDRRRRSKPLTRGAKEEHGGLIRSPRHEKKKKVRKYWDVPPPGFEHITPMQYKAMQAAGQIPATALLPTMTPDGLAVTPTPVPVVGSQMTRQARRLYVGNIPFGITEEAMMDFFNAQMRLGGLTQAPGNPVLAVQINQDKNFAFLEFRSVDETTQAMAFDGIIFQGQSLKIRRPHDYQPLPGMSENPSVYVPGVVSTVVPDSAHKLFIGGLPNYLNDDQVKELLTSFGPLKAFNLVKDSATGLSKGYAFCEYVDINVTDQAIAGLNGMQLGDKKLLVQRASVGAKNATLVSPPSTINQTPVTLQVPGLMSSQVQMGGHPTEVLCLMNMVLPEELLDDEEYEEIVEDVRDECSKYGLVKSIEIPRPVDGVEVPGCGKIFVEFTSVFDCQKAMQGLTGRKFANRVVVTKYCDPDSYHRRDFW", "chain of UniProt P29055 (whole entry, looked up)": "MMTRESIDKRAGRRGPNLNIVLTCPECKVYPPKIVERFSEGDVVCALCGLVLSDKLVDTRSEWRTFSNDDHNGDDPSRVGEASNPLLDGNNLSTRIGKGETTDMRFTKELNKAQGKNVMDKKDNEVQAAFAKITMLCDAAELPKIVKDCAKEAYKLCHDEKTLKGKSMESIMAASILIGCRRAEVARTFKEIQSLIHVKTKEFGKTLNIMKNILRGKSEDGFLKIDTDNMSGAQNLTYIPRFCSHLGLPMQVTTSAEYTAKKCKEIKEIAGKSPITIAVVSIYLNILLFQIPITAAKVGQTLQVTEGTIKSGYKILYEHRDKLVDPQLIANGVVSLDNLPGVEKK"}
{"Substance": "B1 (peripherin, human)", "tested on": "CYB5R4 knockout human cells", "test": "PP4 interaction, 3xFLAG-PP4C IP-MS", "conditions": "concentration not given", "scale": "relative to: CYB5R4 KO over parental", "measurement": "log2 fold change", "value": -0.23}
{"Substance": "MTVCNASQRQAHAQATAVSL", "tested on": "SW480", "test": "phage binding", "test system": "peptide", "scale": "relative to: targeting over control phage", "measurement": "selectivity ratio", "value": "3.5 ± 0.75"}
{"Substance": "PFVYLIRFHRFHRFHGGGSSSQLSRP", "tested on": "HEK293T", "test": "plasmid delivery, refers to: RFP", "test system": "peptide", "conditions": "concentration not given, 48 h", "measurement": "transfection efficiency", "value": "~60%"}
{"Substance": "epoetin alfa", "tested on": "UT7/EPO", "test": "RT-qPCR, refers to: CISH", "conditions": "concentration not given, 90 min, normalized to HPRT1", "scale": "relative to: vehicle", "measurement": "mRNA level", "value": "26.5 fold"}
{"Substance": "B2 (gasdermin-A)", "tested on": "CYB5R4 knockout human cells", "test": "PP4 interaction, 3xFLAG-PP4C IP-MS", "conditions": "concentration not given", "scale": "relative to: CYB5R4 KO over parental", "measurement": "log2 fold change", "value": 0.48}
{"Substance": "LADPIPDDF", "tested on": "Jurkat expressing engineered TCR", "test": "NFAT-eGFP reporter, fluorescence microscopy", "test system": "peptide", "conditions": "concentration not given, HLA-A*01:01 on EL4 cells", "measurement": "GFP-positive cells", "value": "0.442%"}
{"Substance": "colistin", "tested on": "Escherichia coli", "test": "broth microdilution", "test system": "clinical isolate RKI-No_525/16", "measurement": "MIC", "value": "8 µg/mL"}
{"Substance": "TTCCTGAAGGGGGGCTATAAAAGGGGGTGGGGGCGTCAAGTCAATCGGTCC (dsDNA; 5'-amino-C6 primer)", "tested on": "SUA7 full length assumed (Saccharomyces cerevisiae, UniProt P29055)", "test": "array", "test system": "double-stranded DNA, one strand shown", "conditions": "TFIIB alone", "measurement": "Kd", "value": "2.73 ± 1.13 nM"}
{"Substance": "adrenomedullin", "test": "RP-HPLC", "test system": "HALO Phenyl-hexyl column", "conditions": "25 µM, acetic acid/acetonitrile, 10 min gradient", "measurement": "retention time", "value": "4.62 min"}
{"Substance": "Pam2CSK4", "tested on": "BV-2", "test": "Western blot, refers to: NLRP3", "conditions": "concentration not given, unit not given", "scale": "relative to: control", "measurement": "protein level", "value": "2.32 and 2.25"}
{"Substance": "B3 (serpin B12)", "tested on": "CYB5R4 knockout human cells", "test": "PP4 interaction, 3xFLAG-PP4C IP-MS", "conditions": "concentration not given", "scale": "relative to: CYB5R4 KO over parental", "measurement": "log2 fold change", "value": 0.43}
{"Substance": "YTDPIPLGM", "tested on": "Jurkat expressing engineered TCR", "test": "NFAT-eGFP reporter, fluorescence microscopy", "test system": "peptide", "conditions": "concentration not given, HLA-A*01:01 on EL4 cells", "measurement": "GFP-positive cells", "value": "0.466%"}
{"Substance": "UCAAAGUUG (ssRNA)", "tested on": "U2AF2 148-342 (Homo sapiens, UniProt P26368)", "test": "sequencing of bound RNA", "test system": "RNA", "conditions": "motif only", "measurement": "Kd", "value": "4220 nM"}
{"Substance": "insulin", "test": "LC-MS/MS", "test system": "pooled human serum, low level", "conditions": "24 h, 4 °C, stability before sample preparation", "scale": "relative to: untreated control", "measurement": "bias", "value": "-6.4%"}
{"Substance": "B4 (Protein S100-A8)", "tested on": "CYB5R4 knockout human cells", "test": "PP4 interaction, 3xFLAG-PP4C IP-MS", "conditions": "concentration not given", "scale": "relative to: CYB5R4 KO over parental", "measurement": "log2 fold change", "value": 0.67}
{"Substance": "Polymyxin B", "test": "untargeted LC-MS metabolomics, refers to: acetyl-CoA", "test system": "Sprague-Dawley rat, right cerebral cortex", "conditions": "intracerebroventricular, 0.75 mg/kg, 1 h", "scale": "relative to: NaCl control", "measurement": "log2 fold change", "value": -3.8}
{"Substance": "EVDPIGYDF", "tested on": "Jurkat expressing engineered TCR", "test": "NFAT-eGFP reporter, fluorescence microscopy", "test system": "peptide", "conditions": "concentration not given, HLA-A*01:01 on EL4 cells", "measurement": "GFP-positive cells", "value": "0.438%"}
{"Substance": "Neuropeptide Y", "test": "RP-HPLC", "test system": "HALO Phenyl-hexyl column", "conditions": "25 µM, acetic acid/methanol, 10 min gradient", "measurement": "retention time", "value": "8.86 min"}
{"Substance": "EVEPIGLEF", "tested on": "Jurkat expressing engineered TCR", "test": "NFAT-eGFP reporter, fluorescence microscopy", "test system": "peptide", "conditions": "concentration not given, HLA-A*01:01 on EL4 cells", "measurement": "GFP-positive cells", "value": "0.503%"}
{"Substance": "Peginesatide", "tested on": "UT7/EPO", "test": "tyrosine phosphorylation, LC-MS/MS phosphoproteomics, trypsin, refers to: SHC1 tyrosine 427", "conditions": "10 nM, 15 min, added: 10 U/mL EPO", "scale": "relative to: vehicle", "measurement": "phosphorylation level", "value": "14.7 fold"}
{"Substance": "RVEPIPLGF", "tested on": "Jurkat expressing engineered TCR", "test": "NFAT-eGFP reporter, fluorescence microscopy", "test system": "peptide", "conditions": "concentration not given, HLA-A*01:01 on EL4 cells", "measurement": "GFP-positive cells", "value": "0.533%"}
{"Substance": "B5", "tested on": "CYB5R4 knockout human cells", "test": "PP4 interaction, 3xFLAG-PP4C IP-MS", "conditions": "concentration not given", "scale": "relative to: CYB5R4 KO over parental", "measurement": "log2 fold change", "value": -1.23}
{"note": "A few entries again:"}
{"Substance": "Pam2CSK4", "tested on": "BV-2", "test": "Western blot, refers to: NLRP3", "conditions": "concentration not given, unit not given", "scale": "relative to: control", "measurement": "protein level", "value": "2.32 and 2.25"}
{"Substance": "UCAAAGUUG (ssRNA)", "tested on": "U2AF2 148-342 (Homo sapiens, UniProt P26368)", "test": "sequencing of bound RNA", "test system": "RNA", "conditions": "motif only", "measurement": "Kd", "value": "4220 nM"}
